Measurements of several laboratories.
Each line is one published result; not all experiments were run side by side. “And” joins repeats or separate records; there may be more than shown. ± marks the error that the study gave.

Compound | test | system | conditions | remaining compound
O=C(O)c1ccc(-c2nc(-c3ccccc3Cl)c3sccn23)cc1 |  | human liver microsomes | 1 µM, 30 min | 69.6%
COc1cc2c(cc1NC(=O)c1cncn1C)C[C@H]1[C@H]3CCCC[C@@]23CCN1C |  | mouse plasma, 50% in PBS | 5 µM, 1 h, 37 °C | 97.8%
Cc1nnc(-c2ccc(CC(=O)NCCCC[C@H](NC(=O)c3ccc(OCc4ccc(B(O)O)cc4)c(-c4nc5ccccc5c(=O)[nH]4)c3)C(=O)NCC(=O)NCC(=O)NCC(=O)N[C@@H](Cc3ccccc3)C(=O)N[C@@H](Cc3ccccc3)C(=O)O)cc2)nn1 | UPLC-MS/MS | human serum | 100 µM, 0.5 h, 37 °C | 100% and 101%
O=c1[nH]c2ccccc2c(=O)o1 |  | HEPES buffer | 20 h, pH 7.4 | 0%
C/C(=N\OCCCN1CCCCC1)c1ccc(C(F)(F)F)cc1 |  | human liver microsomes | 30 min | 85.2%
Cc1cc(-c2ccc3ccccc3c2)nnc1NCCN1CCN(C)CC1 |  | human liver microsomes | 10 min | 102%
C=CCN1CCC23c4c5ccc(OC(=O)c6ccccc6)c4OC2C(=O)CCC3(O)C1C5 (stereo not drawn) |  | rat plasma | 1 h, together with: loperamide 100 µM | 11.4% and 11.6% and 13.1%
C[C@@H](Oc1ccc2c(c1)[C@H]1CCN[C@@]1(C)CO2)c1ccccc1 | HPLC | DPBS | 10 µM, 4 h, together with: CellROX Green 5 µM and tBHP 55 µM | 97%
C=CCN1CCC23c4c5ccc(OC(=O)c6ccc(NC(=O)OC(C)(C)C)cc6)c4OC2C(=O)CCC3(O)C1C5 (stereo not drawn) |  | human plasma | 0 h | 99.2% and 100% and 101%
CCN(CC)CCOc1ccc(-c2nnn(Cc3ccc(OC)cc3)c2N)cc1 |  | mouse hepatocytes | concentration not given, time not given | 32.6%
N[C@@H](Cc1ccc(O)cc1)C(=O)N[C@@H]1CSCc2ccccc2CSC[C@@H](NC(=O)[C@@H](N)Cc2ccc(O)cc2)C(=O)NCC(=O)N[C@@H](Cc2ccc(F)cc2)C(=O)NNC(=O)[C@H](Cc2ccc(F)cc2)NC(=O)CNC1=O | LC-MS | human plasma | 5 µM, 1 h, 37 °C | 95.4%
NC1CCN(C(=O)Oc2ccc(C3CCCC4(C3)OOC3(O4)C4CC5CC(C4)CC3C5)cc2)CC1 (racemic) |  | citrate buffer anaerobic | 2 h, together with: ferrous ammonium sulfate 50 mM | 83%
C[C@H](NCc1ccc(-c2ccc(C(F)(F)F)cc2)cc1)C(N)=O |  | dog liver microsomes | 1 µM, 30 min | 60.7%
CC(C)=CCC/C(C)=C\CCn1cc(CC(P(=O)(O)O)P(=O)(O)O)nn1 |  | mouse plasma | 4 h, 37 °C, equilibrium dialysis stability | 110 ± 6.3%
C=CCN1CCC23c4c5ccc(OC(=O)c6ccc(N)cc6)c4OC2C(=O)CCC3(O)C1C5 (stereo not drawn) |  | rat plasma | 1 h, together with: digitonin 100 µM | 0.3% and 0.271%

Repeated from above:
Compound | test | system | conditions | remaining compound
C[C@H](NCc1ccc(-c2ccc(C(F)(F)F)cc2)cc1)C(N)=O |  | dog liver microsomes | 1 µM, 30 min | 60.7%
